Results of several laboratories.
Numbered parts are unrelated; each lists some results of a single study. Positions count from the first letter of the parent shown.

Sample 1
Target: RNA binding protein fox-1 homolog 2, RRM domain, GST-SBP tag (RBFOX2, Homo sapiens, UniProt O43251-10, residues 100-194)
Technique: RNA Bind-n-Seq
Form: RNA
Sample: in vitro
Concentration: 365 nM
Notes: natural RNA segment, single round, ends assumed
Baseline: no-protein control
Direction: higher = stronger binding
Residues (chain): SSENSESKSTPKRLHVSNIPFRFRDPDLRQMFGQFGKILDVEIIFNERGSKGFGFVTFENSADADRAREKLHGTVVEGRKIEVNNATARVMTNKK
Strand	RBNS enrichment (R)
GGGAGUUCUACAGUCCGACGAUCGGCUUGCAUCCUGUUGUGUAUUCUUUGUAUGCUGCUGACUAUAUCCCUAUUCUGCUGUAGGGGACUAGAUUUCUAAUAGAGAACAUUGGCAUGGUAGCUGAAGCCCACUCUGGAAUUCUCGGGUGCCAA	1.08
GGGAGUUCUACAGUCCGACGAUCGUCACCCUGGGCCUCAGUGAAGAAUUAGGGCCCGCGCUGCACAGGAAAGUUCCCUUUGGUCCACAGGGCCAUUUCAAGCAAGUUCAAUGACCUGGUCCCUUAGAGCUCCAUGGAAUUCUCGGGUGCCAA	0.396
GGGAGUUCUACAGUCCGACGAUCUGAAGGGAUUCCAUCUCUCCAUCUCCCAGUUUAUCAUUGUGGUCCAAUUACAUAGUCAGCUACAUAAUUGGCUUGCUUAUACAAAGAUAAGCAAGAGUCUUUCAUUGUCAUGGAAUUCUCGGGUGCCAA	0.27
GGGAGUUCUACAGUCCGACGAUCGCUGACAGGGGCCUUGGCUACAGCUUGUGGAGAUGAUGCCAUCCGAGUGUUUGAGGAAGACCCAGGCUCAGACCCACAGCAGCCCACCUUCUCUCUGACAGCCCAUCUUCUGGAAUUCUCGGGUGCCAA	0.579
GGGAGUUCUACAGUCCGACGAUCUUGGUAUUCGCUUGAGAAAAAAAGAAUAGUUGAACCUAUUUCUCUUUCUUUACAAGAUGGGUCCAGGAUUCCUCUUUUCUCUGCCAUAAAUGAUUAAUUAAAUAGCUUUUUGGAAUUCUCGGGUGCCAA	0.561
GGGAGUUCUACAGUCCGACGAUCCCUUGGUGGAGUCCAAAUGAUUUUUCUGUACCAUAUUGUUCUCUUACACAUACGUAUGUUAGGAAAAUAGGCACACUUUCAAAGAGAAUGUUCUCUUACACAUACGUAUGUGGAAUUCUCGGGUGCCAA	0.275
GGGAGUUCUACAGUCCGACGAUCCUCUUCUUGCUGUCUCUCUCCUUUUAGCAGUCACUUCUGAGAAGUAAAGAACCUGACUUAGUGCUGGAGUUUGUGCUUGGUUUAUCUUCUUUGCGAUCUCCAAGCUAAGCUGGAAUUCUCGGGUGCCAA	0.321
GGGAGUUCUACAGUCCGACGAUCGUCUGGUCUCCCUGCUCUUUCUGCAUGGUUGUGUCCCUAGUCCUAAGCUUUGGUUCUUUAGGGUGACUGUGGUAAGAAGGAUAUUUAAUCAUGACAUGCACGGACACGUAUGGAAUUCUCGGGUGCCAA	0.7
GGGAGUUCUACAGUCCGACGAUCUCUAUUCUGUACUGUGACUUUAGUUCAGGAAGUUUUGUUUUGUGUUUUAAAUAAAAGGAAAGAGCAAGUUUGCUCAGUCAAGUGAUCAGAUCCCGAAUCUAGAUUCCCAGUGGAAUUCUCGGGUGCCAA	0.392
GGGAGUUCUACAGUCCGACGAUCGAGGGGGCCUUCCUCCAGGGAAUGUGACUCUCCCAGGCCCCAGAAUAGCUCCUGGACCCAAGCCCAAGGCCCAGCCUGGGACAAGGCUCCGAGGGUCGGCUGGCCGGAGCUGGAAUUCUCGGGUGCCAA	0.385
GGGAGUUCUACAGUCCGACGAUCUAUUGGCCAAAGCAUUCUUACAGAACAGUGUCUAAAAGGUCAUUCCCAACCCUUUCUGAUAUUGGCUAAGACCUCAGUAUCUCCCAGUAGCACUUCUUCUGGAUUUGAAUUGGAAUUCUCGGGUGCCAA	0.475
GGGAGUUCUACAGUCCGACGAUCCCUAAAUAAAAAAUUUGCACAGGUAAAUUCUCUCACUUGUGAAUGGGAGAAGCUGCCCCAGGAAUCUGUGAGGAUGGUAUUCCCUGGAGUCUGGCUUUGAAAGAUUUCAUUGGAAUUCUCGGGUGCCAA	0.533

Sample 2
Target: RING finger protein unkempt homolog, zinc fingers 1-6, SBP tag (UNK, Homo sapiens, UniProt Q9C0B0, residues 30-357)
Sequence of UniProt Q9C0B0 (30-357, looked up): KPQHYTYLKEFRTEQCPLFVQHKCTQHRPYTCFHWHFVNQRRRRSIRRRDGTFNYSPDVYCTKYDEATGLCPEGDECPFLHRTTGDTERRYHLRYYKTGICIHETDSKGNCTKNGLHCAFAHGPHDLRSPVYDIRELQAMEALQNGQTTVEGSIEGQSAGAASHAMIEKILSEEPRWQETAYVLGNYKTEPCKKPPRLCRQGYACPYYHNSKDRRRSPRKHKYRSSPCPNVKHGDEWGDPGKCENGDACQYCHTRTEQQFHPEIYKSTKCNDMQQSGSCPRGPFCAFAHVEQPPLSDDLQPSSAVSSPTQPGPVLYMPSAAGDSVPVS
Technique: RNA Bind-n-Seq
Form: RNA
Sample: in vitro
Concentration: 100 nM
Notes: RNA with constant flanks, vertebrate orthologous sites, ends assumed
Baseline: input RNA pool
Direction: higher = stronger binding
Strand	bound/input enrichment [ratio]
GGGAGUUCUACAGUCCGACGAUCAGUCCCCUGGGCGGACGGAUUUUUUUUUUUUAGUGUCUUGAAAUUUAAACUCUGUGCUUGUAGGAGACUGUAACCUUUUUGUCUUUUUUUUUUUAAACAAAACCUCCACCUCCAGUGGCUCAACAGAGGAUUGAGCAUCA	1.2
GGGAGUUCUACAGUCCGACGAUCUUCAGGCACAACUGACUGGUUCACAGCAUUCCUUACAUAGUUAUCUGUCAAAUGCAAGUGUAGUUAAUUUUCAGGAAACAACCAGGCAGUCAUCUUUAUCCUGUAGCUCAAUUGGAGAUUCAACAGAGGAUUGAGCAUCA	1.19
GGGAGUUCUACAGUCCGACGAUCUGAGAACUCUUGCAGUCUUAGAUGUUAUACAAAAAUAUGUAUCUGAAUUGUAAGAGUUGUUAGCACAGGUGUUUUUUUGUUUGUUUUUUUUUUAAGCACUUGUUUUGGGUACAAGGCAUUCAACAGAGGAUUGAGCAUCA	0.257
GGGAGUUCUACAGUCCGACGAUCUACAAUCUUACACUUAAACUGGUAUUUUCAAGCAAUAGGACAUUUUCUUUUUUUACAGAUUAGUGUAUCUGGUUUCUACAUGGAAGACUAAACUCAUGCUUAUUGCUAAAUGUGGUCUUUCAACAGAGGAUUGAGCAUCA	0.712
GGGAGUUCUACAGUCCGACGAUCUAUUAGUGUUGUACCAGCCUAUUAACCUCUUGUCUGUGCACAGCUUCAAAUGUUACCGUCUAGUUAGAUUUUUAUUUAAAAUAUGAAAAACUGCUUUUCCCAAGACGUUUUUUAAAAACACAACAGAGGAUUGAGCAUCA	1.61
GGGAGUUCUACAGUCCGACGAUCCAUCUCUUUUUUAUAUGUCCAUAAAUGGGUUUGAAUUUUUAAACAGUUACUAGUUUUAAUUAGCUCUGCUCUCAUGAAGUAUUAUUACAGUUCACCACAAAUACAACUGUCUGAAUUACUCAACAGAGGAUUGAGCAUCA	0.748
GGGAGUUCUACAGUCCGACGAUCGAUUUGGACCUGGGAGCAGAGCUAGGGAGCUGACUAAAGUAAAGCAGACUUGUAAACUUGUAGCCAUAUGUAGUUGCACAACAACAGUAUCAGCAUAGCAGCUGUGCUAAAGUAUUUAUACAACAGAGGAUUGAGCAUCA	0.514
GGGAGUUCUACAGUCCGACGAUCACAGGAACAGCAUAGGCUGUUUGAGUUUUGGGGAAAUGAGCUUUGCUUUUUAUAUUUAACUAGGAUACUUUUAUAUGAUGGGUGCUUUGAGUGUGAAUGCAGCAGGCUCUCUUGUUUCCGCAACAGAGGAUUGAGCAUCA	1.29
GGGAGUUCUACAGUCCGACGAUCAGCAACCCAUGGAUUCAGGACUGGUUUUACAAAUAUACCAAGUAGAUACGGAAGUAACAACAGAAUUGGACAGCCAAGACCAUGAUAUACCCUAACUUAUUUUUAUAAGGAAUAUUGACUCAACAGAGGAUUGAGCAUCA	0.781
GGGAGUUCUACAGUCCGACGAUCAAACUAUGCUGGUGCACGGUCCUGUGACCAGUGCCCUCCGCCCCUCUUUACACCACUGUCCUACCUACAGGAAUUUAAUAUUUUUAAAGUUUUACAAUACUGUAUAUUCAAAGAUUUGUUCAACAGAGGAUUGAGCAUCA	0.342
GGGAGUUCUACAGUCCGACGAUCUUGUGGGGACUCGGGUGGGGAAAGGGAGAUAUAUAGAUGUUAUUGGCGUGUUUAAGUAUUUGGAGCUUUUUGUUUGCCCCCAUUUUUUUCUGUUUUGUAUUUUCCCUUUAAUUGAAUGCUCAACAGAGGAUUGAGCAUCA	1.27

Sample 3
Target: CCNA2, cyclin fold, Cln2 fusion (human)
Technique: yeast growth competition, sequencing
Sample: yeast
Notes: strong parent motif
Baseline: not given
Direction: higher = stronger binding
Starting sequence: RBL1 docking peptide (human); GSAKRRLFGEDPP; partner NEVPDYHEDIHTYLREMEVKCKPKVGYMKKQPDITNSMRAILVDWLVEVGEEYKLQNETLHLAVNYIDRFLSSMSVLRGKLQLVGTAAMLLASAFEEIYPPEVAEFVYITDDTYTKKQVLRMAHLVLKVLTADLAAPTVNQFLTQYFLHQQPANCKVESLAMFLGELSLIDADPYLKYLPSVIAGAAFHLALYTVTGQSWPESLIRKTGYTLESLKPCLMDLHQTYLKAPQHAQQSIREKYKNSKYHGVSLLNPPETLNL
Substitution	normalised enrichment score
K4F	3.5
P12K	5.77
R6N	4.73
G9F	6.59
P13E	4.65
R6Y	0.745
G1A	5.61
P13L	6.64
P13I	5.89
K4Q	2.79
E10N	5.47
A3P	1.47
S2V	5.19
F8G	0.227
K4W	2.09
R6G	0.764
S2I	4.3
R5I	0.883
K4L	1.03
A3K	2.13
D11K	6.22
P13S	5.58
S2T	5.7
R6V	3.09
S2Q	5.33

Sample 4
Target: Prothrombin, mature alpha-thrombin (F2, Homo sapiens, UniProt P00734)
Technique: aptamer microarray, sandwich
Form: DNA with 2'F-ANA
Sample: in vitro
Concentration: 200 nM
Notes: whole 15-mer aptamer, many near background
Added: Cy3 exosite-II aptamer, 400 nM
Direction: higher = stronger binding
Strand: GGTTGGTGTGGTTGG
Modification	mean fluorescence intensity [a.u.]
2'F-ANA at 1 3 5 6 7 8 11 12 15	105
2'F-ANA at 2 3 5 6 7 8 10 11 13 15	59.8
2'F-ANA at 6 10 11 12 15	180
2'F-ANA at 1 2 6 9 10 11 12 15	63.6
2'F-ANA at 4 5 6 8 13 15	55
2'F-ANA at 1 2 4 5 8 10 15	49.3
2'F-ANA at 5 7 8 9 10 11 13 14	46.8
2'F-ANA at 1 4 8 10 15	48.2
2'F-ANA at 2 5 6 7 10 11 14	46.1
2'F-ANA at 1 2 3 5 7 8 11 14 15	48.7
2'F-ANA at 7 8 10 15	199
2'F-ANA at 1 2 3 4 5 6 8 10 11 12	67
2'F-ANA at 2 3 4 9 10 11 13	220
2'F-ANA at 1 5 6 9 10 11 12 13 15	67.7
2'F-ANA at 2 7 11 12 15	691
2'F-ANA at 3 4 5 6 12 13 14	60
2'F-ANA at 2 3 5 8 9 10 11 13 14 15	79.6
2'F-ANA at 2 3 5 6 7 8 13 14	51.3
2'F-ANA at 3 4 5 7 9 12 13 15	108
2'F-ANA at 4 6 7 9 11 12 14	96.6
2'F-ANA at 2 4 8 9 10 11 15	98.1
2'F-ANA at 2 3 4 5 8 13 14 15	50.2
2'F-ANA at 2 3 6 7 8 10 11 13	338
2'F-ANA at 1 8 10 11 13 14 15	51.5
2'F-ANA at 1 6 7 8 10	59.3

Sample 5
Target: Histone acetyltransferase KAT6A, winged helix 1, GST fusion (KAT6A, Homo sapiens, UniProt Q92794, residues 1-85)
Technique: protein binding microarray
Form: double-stranded DNA, one strand shown
Sample: in vitro
Concentration: not given
Notes: 8-mer, flanks averaged, mean of 2 arrays, mostly near background
Baseline: not given
Direction: higher = stronger binding
Residues (chain): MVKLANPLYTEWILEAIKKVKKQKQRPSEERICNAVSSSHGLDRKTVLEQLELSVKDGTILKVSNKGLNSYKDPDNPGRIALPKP
Strand	E-score
CATTGTGC	0.0478
ACCACTTG	-0.192
ACCCCTAT	-0.0679
AGGATTCG	-0.145
ACCGCCAT	0.0355
AAACTGGG	-0.34
ACGGCGTG	0.416
AAGTACTT	0.0361
AGTATGCA	-0.13
CATTACCG	0.157
CCCCCTCG	-0.0603
AGATGAGA	-0.235
CCCCAAAC	-0.0896
CGTGCTCC	-0.0606
CGATGGAC	0.0664
AATTTGGG	-0.317
ATCCGTGA	0.269
AAACGTTC	-0.015
GATTCCAA	-0.199
TGGTTCAA	-0.163
AGGCATCG	-0.0761
CCCTGAGC	0.0302
GCCTCCGA	0.0195
ACCTTGAG	-0.168
AGTTCGTC	-0.0502
